Published values of several laboratories.
Lines come from different studies, so protocols differ. Several values in a cell are separate wells, animals, samples, runs or records. ± gives the spread as reported. Values after ≈ are worked out from the molar mass of the structure shown.

CN(C(=O)c1ccn2ncc(-c3ccc(C(N)=O)cc3)c2c1)c1ccc(C#N)cn1
faecal Nluc luminescence (Cryptosporidium parvum; UGA1 Nluc, IFN-gamma knockout C57BL/6 mice, faeces; oral, 10 mg/kg daily, 360 h post infection, treatment days 11-17; higher means more parasites): 205 a.u. and 249 a.u. and 195 a.u. and 275 a.u.

CCSC(SCC)c1ccc(OCCNS(=O)(=O)c2ccc(C)cc2)c(OC)c1
EC50 (Tobacco mosaic virus; inactivation activity; plant in vivo): 566.5 ± 2.2 µg/mL

[O-][N+]1=C(Cc2ccccc2)C2=NCCCN2c2ccccc21
MIC50 (Parabacteroides distasonis and Bacteroides spp.; bacterial growth): 1 µg/mL (≈ 3.43 µM)

CCCSC(SCCC)c1ccc(OCCNS(=O)(=O)c2cccc(C(F)(F)F)c2)c(OC)c1
EC50 (Tobacco mosaic virus; protective activity; plant in vivo): 287.7 ± 1.6 µg/mL

CC[C@H](C)[C@H](NC(=O)[C@H](C)NC(=O)CNC(=O)[C@H](C)NC(=O)[C@H](CCCCN)NC(=O)[C@H](CO)NC(=O)[C@H](C)NC(=O)[C@H](CCSC)NC(=O)CN)C(=O)N[C@@H](C)C(=O)NCC(=O)N[C@@H](CCCCN)C(=O)N[C@H](C(=O)N[C@@H](C)C(=O)N[C@@H](CCCCN)C(=O)N[C@H](C(=O)N[C@@H](C)C(=O)N[C@@H](CC(C)C)C(=O)N[C@@H](CCCCN)C(=O)N[C@@H](C)C(=O)N[C@@H](CC(C)C)C(N)=O)C(C)C)[C@@H](C)CC
combination index (Escherichia coli; 0370 wild type; 24 h, 30 °C, at EC90, mean of ratios, with: nalidixic acid): 1.26

CC[C@H](C)CCCCC(=O)N[C@@H](CCN)C(=O)N[C@H](C(=O)N[C@@H](CCN)C(=O)N[C@H]1CCNC(=O)[C@H]([C@@H](C)O)NC(=O)[C@H](CCN)NC(=O)[C@H](CCN)NC(=O)[C@H](CC(C)C)NC(=O)[C@@H](CC(C)C)NC(=O)[C@H](CCN)NC1=O)[C@@H](C)O
MIC fold change (Escherichia coli; daily serial passaging; ATCC 8739; highest sub-MIC, 12 days; relative to: initial MIC): 2.68

C[C@H]1O[C@@H](O[C@H]2CC[C@@]3(C)[C@H](C2)C[C@@H]2O[C@]24[C@@H]3C[C@@H](O)[C@]2(C)[C@@H](C3=CC(=O)OC3)CC[C@@]24O)[C@H](O)[C@H](O)[C@@H]1O[C@@H]1O[C@H](CO)[C@@H](O)[C@H](O)[C@H]1O
hatchlings per female (Oncopeltus fasciatus; diet, concentration not given): 121

FC(F)(F)c1cccc(CNc2nc(NC3CCN(Cc4ccccc4)CC3)c3nc[nH]c3n2)c1
mRNA fold change (Cryptococcus neoformans; RNA-seq, item: CNAG_02001; 48 µg/mL, 3 h; relative to: untreated): 2.62

COc1ccc(NC(=O)N2CCCCN3[C@H](CN(C)C)[C@H](c4ccc(C#Cc5ccccc5)cc4)[C@@H]3C2)cc1
EC50 (Toxoplasma gondii; bradyzoite growth; alkaline-induced bradyzoites): 224 nM

CC[C@H](C)[C@H](NC(=O)[C@H](CCCNC(=N)N)NC(=O)[C@H](CO)NC(=O)[C@H](Cc1ccc(O)cc1)NC(=O)[C@@H](NC(=O)[C@@H](NC(=O)[C@H](C)NC(=O)CNC(=O)[C@H](CCCCN)NC(=O)[C@H](CCCCN)NC(=O)CCNC(=O)CCCCCNC(=O)[C@H](CCCNC(=N)N)NC(=O)CCCCCNC(=O)[C@H](CCCNC(=N)N)NC(=O)[C@H](CCCNC(=N)N)NC(=O)CCCCCNC(=O)[C@H](CCCNC(=N)N)NC(=O)[C@H](CCCNC(=N)N)NC(=O)CCCCCNC(=O)[C@H](CCCNC(=N)N)NC(=O)[C@H](CCCNC(=N)N)NC(=O)CCCCCNC(=O)[C@@H](N)CCCNC(=N)N)C(C)C)[C@@H](C)O)C(=O)N[C@@H](CO)C(=O)NCC(=O)N[C@@H](CCC(N)=O)C(=O)N[C@@H](Cc1ccc(O)cc1)C(=O)N[C@@H](CCCCN)C(=O)O
MIC (Escherichia coli; broth microdilution; ATCC 25922, Mueller-Hinton broth; with: LPS O55:B5 1 mg/mL): > 96 µM

CCOC(=O)C1(Cc2ccc(F)cc2)Oc2cc(F)ccc2N(Cc2ccc(F)cc2)C1=O (centres unmarked)
inhibition (Eclipta prostrata; fresh weight, greenhouse postemergence; postemergence, 150 g ai/ha, 21 days): 59 ± 2.26%

Cc1cc(Cl)cc(S(C)=NC#N)c1NC(=O)c1cc(Br)nn1-c1ncccc1Cl (centres unmarked)
mortality (Spodoptera litura; leaf-dip; third instar larvae; 12.5 ppm, 72 h): 100%

[O-][N+]1=C(c2ccc(Cl)cc2)C2=NCCCCN2c2ccccc21
MIC50 (Prevotella spp.; bacterial growth): 0.5 µg/mL (≈ 1.53 µM)

CCCCSC(SCCCC)c1ccc(OCCNS(=O)(=O)c2c(F)cccc2F)c(OC)c1
EC50 (Tobacco mosaic virus; protective activity; plant in vivo): 407.5 ± 2.6 µg/mL

CC[C@H](C)[C@@H]1NC(=O)[C@@H](CCCNC(=N)N)NC(=O)[C@@H](NC(=O)[C@@H](CC(C)C)NC(=O)[C@H](C)NC(=O)[C@H](C)NC(=O)[C@@H]2CCCN2C(=O)[C@@H](CC(C)C)NC(=O)[C@@H](NC(=O)[C@@H](CCCNC(=N)N)NC(=O)[C@@H](CC(C)C)NC(=O)[C@@H](CC(C)C)NC(=O)[C@@H](NC(=O)[C@@H](CCCNC(=N)N)NC(=O)[C@@H](CC(C)C)NC(=O)[C@@H](NC(=O)[C@@H](NC(=O)CNC(=O)[C@@H](CC(C)C)NC(=O)[C@@H](N)Cc2ccccc2)[C@@H](C)O)C(C)C)C(C)C)C(C)C)CSSC[C@@H](C(=O)O)NC(=O)[C@@H](CCCNC(=N)N)NC(=O)[C@@H](CCCNC(=N)N)NC(=O)[C@H](Cc2ccccc2)NC1=O
survival rate (Streptococcus pyogenes; Galleria mellonella larvae; 16 mg/kg, titanium implant biofilm infection): 75%

CNCCO.O=C(O)C(Cl)Cl
herbicidal inhibition (Eleusine indica; 15 mg/mL, 21 days, pre-emergence, greenhouse): 0%

COc1ccc(C2=[N+]([O-])c3ccccc3N3CCCN=C23)cc1
MIC50 (Parabacteroides distasonis and Bacteroides spp.; bacterial growth): 1 µg/mL (≈ 3.25 µM)

Cc1ccc(N2CC3CC(C2)N3C)cc1C(=O)NC1(c2ccc3c4c(cccc24)C(=O)N3C)CC1
inhibition (Human coronavirus NL63; viral replication; 20 µM): 99.4%

CCCSC(SCCC)c1ccc(OCCNS(=O)(=O)c2ccc(Br)cc2)c(OC)c1
EC50 (Tobacco mosaic virus; protective activity; plant in vivo): 340 ± 4.3 µg/mL

CC[C@H](C)[C@H](NC(=O)[C@H](CCCCN)NC(=O)[C@H](CCCCN)NC(=O)[C@H](Cc1ccccc1)NC(=O)[C@H](Cc1ccccc1)NC(=O)[C@H](CCCCN)NC(=O)[C@H](CCCCN)NC(=O)[C@H](Cc1ccccc1)NC(=O)[C@H](CCCNC(=N)N)NC(=O)[C@@H](N)CCCCN)C(=O)N[C@@H](CCCCN)C(=O)N[C@@H](CCCCN)C(=O)N[C@@H](CO)C(=O)N[C@H](C(=O)N[C@@H](CCCCN)C(=O)N[C@@H](CCCCN)C(=O)N[C@@H](CCCNC(=N)N)C(=O)N[C@H](C(=O)N[C@@H](CCCCN)C(=O)N[C@@H](CCCCN)C(=O)N[C@@H](CC(C)C)C(=O)N[C@@H](Cc1ccccc1)C(=O)N[C@@H](CCCCN)C(=O)N[C@@H](CCCCN)C(=O)N1CCC[C@H]1C(=O)N[C@@H](CCCNC(=N)N)C(=O)N[C@H](C(=O)N[C@H](C(=O)N1CCC[C@H]1C(=O)N[C@H](C(=O)N[C@@H](CO)C(=O)N[C@H](C(=O)N1CCC[C@H]1C(=O)N[C@@H](Cc1ccccc1)C(=O)O)[C@@H](C)CC)[C@@H](C)CC)[C@@H](C)CC)C(C)C)C(C)C)C(C)C
MBC (Pseudomonas aeruginosa; ATCC 27853; 20 h): 16 µg/mL (≈ 3.79 µM)

CCOC(=O)C1(Cc2ccccc2F)Oc2cc(F)ccc2N(Cc2ccccc2F)C1=O (centres unmarked)
inhibition (Eclipta prostrata; fresh weight, greenhouse postemergence; postemergence, 150 g ai/ha, 21 days): 48.8 ± 2.1%

CCn1cnc2c(Oc3ccc(/C=C/C(=O)c4ccc(NS(=O)(=O)c5ccccc5C)cc4)cc3)ncnc21
EC50 (tobacco mosaic virus; protective activity; in vivo plant): 447.2 ± 2.1 µg/mL

CCOC(=O)C1(Cc2cc(OC)cc(OC)c2)Oc2cc(F)ccc2N(Cc2cc(OC)cc(OC)c2)C1=O (centres unmarked)
inhibition (Echinochloa crus-galli; fresh weight, greenhouse postemergence; postemergence, 150 g ai/ha, 21 days): 53.1 ± 2.76%

CC(C)SC(SC(C)C)c1ccc(OCCNS(=O)(=O)c2ccc(Br)cc2)c(Cl)c1
EC50 (Tobacco mosaic virus; protective activity; plant in vivo): 672.3 ± 3.2 µg/mL

COc1ccc(C2=[N+]([O-])c3ccccc3N3CC(C)(C)CN=C23)cc1
MIC50 (Prevotella spp.; bacterial growth): 0.25 µg/mL (≈ 0.745 µM)

CCCSC(SCCC)c1ccc(OCCNS(=O)(=O)c2cccc(Br)c2)c(Cl)c1
EC50 (Tobacco mosaic virus; inactivation activity; plant in vivo): 2003.5 ± 1.7 µg/mL

CCOC(=O)C1(Cc2ccc([N+](=O)[O-])cc2)Oc2cc(F)ccc2N(Cc2ccc([N+](=O)[O-])cc2)C1=O (centres unmarked)
inhibition (Eclipta prostrata; fresh weight, greenhouse postemergence; postemergence, 150 g ai/ha, 21 days): 64 ± 2.26%

[O-][N+]1=C(c2ccccc2)C2=NCCCN2c2ncccc21
MIC90 (Parabacteroides distasonis and Bacteroides spp.; bacterial growth): ≤ 0.06 µg/mL

Cc1cc(C(=O)Nc2nc3cccc(C)c3n2[C@H]2CCCCN(C(=O)/C=C/CN(C)C)C2)ccn1
survival (Trypanosoma brucei brucei; 2T1 CLK1 overexpressing; 0.0098 µM, compound pretreated; relative to: maximum): 124% and 127% and 140% and 105%

A few entries again:
CC[C@H](C)[C@@H]1NC(=O)[C@@H](CCCNC(=N)N)NC(=O)[C@@H](NC(=O)[C@@H](CC(C)C)NC(=O)[C@H](C)NC(=O)[C@H](C)NC(=O)[C@@H]2CCCN2C(=O)[C@@H](CC(C)C)NC(=O)[C@@H](NC(=O)[C@@H](CCCNC(=N)N)NC(=O)[C@@H](CC(C)C)NC(=O)[C@@H](CC(C)C)NC(=O)[C@@H](NC(=O)[C@@H](CCCNC(=N)N)NC(=O)[C@@H](CC(C)C)NC(=O)[C@@H](NC(=O)[C@@H](NC(=O)CNC(=O)[C@@H](CC(C)C)NC(=O)[C@@H](N)Cc2ccccc2)[C@@H](C)O)C(C)C)C(C)C)C(C)C)CSSC[C@@H](C(=O)O)NC(=O)[C@@H](CCCNC(=N)N)NC(=O)[C@@H](CCCNC(=N)N)NC(=O)[C@H](Cc2ccccc2)NC1=O
survival rate (Streptococcus pyogenes; Galleria mellonella larvae; 16 mg/kg, titanium implant biofilm infection): 75%

CNCCO.O=C(O)C(Cl)Cl
herbicidal inhibition (Eleusine indica; 15 mg/mL, 21 days, pre-emergence, greenhouse): 0%

COc1ccc(C2=[N+]([O-])c3ccccc3N3CCCN=C23)cc1
MIC50 (Parabacteroides distasonis and Bacteroides spp.; bacterial growth): 1 µg/mL (≈ 3.25 µM)

Cc1ccc(N2CC3CC(C2)N3C)cc1C(=O)NC1(c2ccc3c4c(cccc24)C(=O)N3C)CC1
inhibition (Human coronavirus NL63; viral replication; 20 µM): 99.4%
